Assay results gathered from unrelated publications.
Each numbered part is a random draw from the data of one study; scales do not carry over between parts.

Set 1 — technique: universal PBM; molecule type: double-stranded DNA, one strand shown; medium: in vitro; concentration: not given; reading: higher = stronger binding
Target: Sal-like protein 4, full length isoform B (SALL4, Homo sapiens, UniProt Q9UJQ4-2, residues 1-616)
Notes: 8-mer, flanks averaged, mean of replicates
For `ACCGGTAG`, the E-score was -0.325.
The E-score of `AACCTTAG` is reported as 0.0473.
For `GTACGACA`, the E-score was 0.0626.
`ATTACTCG` has an E-score of 0.226.
`TATTCTCA` has an E-score of 0.167.
For `AACAGTGA`, the E-score was 0.0907.
With `AACCTGAG` the E-score was -0.176.
`GAAACGGA` gave an E-score of -0.00658.
`AGCGAATC` has an E-score of 0.0554.
The E-score of `GATTGCTA` is reported as 0.0109.
`AGATTTAA` has an E-score of 0.162.
The E-score of `ACGATCGG` is reported as 0.0385.
For `AAGGGCCT`, the E-score was -0.255.
`GTCGACAA` gave an E-score of -0.175.
The E-score of `GTAACCAA` is reported as -0.0746.
With `ATCTAACG` the E-score was 0.0741.

Set 2 — technique: RNA Bind-n-Seq; molecule type: RNA; medium: in vitro; concentration: 200 nM; notes: whole 134-nt RNA, ends assumed; added: 150 mM LiCl; relative to: input library; reading: higher = stronger binding; library: 7-deaza-guanosine replaces G
Target: Ras GTPase-activating protein-binding protein 1, full length (G3BP1, Homo sapiens, UniProt Q13283)
Sequence of UniProt Q13283 (whole entry, looked up): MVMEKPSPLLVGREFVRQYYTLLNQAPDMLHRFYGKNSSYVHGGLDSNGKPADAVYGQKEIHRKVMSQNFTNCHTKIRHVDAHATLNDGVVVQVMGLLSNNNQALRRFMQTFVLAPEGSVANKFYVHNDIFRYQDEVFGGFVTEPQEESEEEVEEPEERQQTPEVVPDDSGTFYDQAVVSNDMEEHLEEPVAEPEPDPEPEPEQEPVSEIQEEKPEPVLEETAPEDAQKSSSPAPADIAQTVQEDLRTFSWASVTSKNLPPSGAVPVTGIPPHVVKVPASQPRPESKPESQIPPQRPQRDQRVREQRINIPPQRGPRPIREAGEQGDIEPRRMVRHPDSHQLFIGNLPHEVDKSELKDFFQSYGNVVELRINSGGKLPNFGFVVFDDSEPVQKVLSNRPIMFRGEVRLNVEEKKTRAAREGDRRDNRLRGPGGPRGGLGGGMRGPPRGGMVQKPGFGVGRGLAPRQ
For `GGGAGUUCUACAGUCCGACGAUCGUCCUGUGCUACACAUCGUAUGUACCGAAUCGGGGUUUGGGGUUUGGGGAAAAAGGGGAAAGUAUUAUGUUACGCCGUUCGGAUCUGCACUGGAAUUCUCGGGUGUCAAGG`, the log2 enrichment was -0.63.
For `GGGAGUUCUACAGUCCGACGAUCUCCCAGCCGAGGACGUCGGAUGUCAUCGUCCUUGCUGCUUUGCCACCCCAUUCCCGUCAAUAAAGUGGUUUGAACCCAACCCUGGUGUCGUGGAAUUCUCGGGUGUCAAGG`, the log2 enrichment was -0.902.
For `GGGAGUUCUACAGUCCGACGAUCUGGUGUUCAUAUUGCUGAUGUGAGCCAUUUUAUUAGGCCAGGAAAUGCCUUGGAUCAAGAAUCAGCCAGAAGAGGAACAACUGUGUAUCUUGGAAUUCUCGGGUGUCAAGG`, the log2 enrichment was -1.37.
`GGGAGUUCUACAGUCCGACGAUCCUCAAGUCCUGUGCUACACAUCGUAUGUACCGAAUCGGUUUUUGGUUUGGAGGAAAGUAUUAUGUUACGCCGUUCGGAUCUGCACUUCCAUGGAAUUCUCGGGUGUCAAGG` gave a log2 enrichment of 0.109.
For `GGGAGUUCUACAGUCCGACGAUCUGCUCUUCACCAAGGAGGACGAGCCUGGCCGCUGCGACGUCCUGAGGAACCCCCUCUACCUCCAGAGUGUGAAGCUGCAGGAAGGUAAGCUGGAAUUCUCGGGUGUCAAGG`, the log2 enrichment was -0.0388.
`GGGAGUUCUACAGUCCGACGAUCCACAGACAACACGCAUCCACACAGACACAGAGGGAAGGGGUUGGGAUGGGGACAGGGUGCACAGCAGGGCGGGGUAGGACCCCAGCCCCUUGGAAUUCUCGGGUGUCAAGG` has a log2 enrichment of 0.498.
The log2 enrichment of `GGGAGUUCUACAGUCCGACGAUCUGGGAGGUGGAUUUUGUUUAUUUUUUUAGCUCAUUUCCAGGGGUGGGAAUUUUUUUUUAAUAUGUGUCAUGAAUAAACUUGUUUUUGAAAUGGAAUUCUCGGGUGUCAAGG` is reported as 0.0294.
`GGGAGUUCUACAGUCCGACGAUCUUAGGGAUGUGGCCAUAGAAUUCUCUCAGGAGGAGUGGAAAUGCCUGGACCCUGCUCAGAGGAUCUUAUACAGGGACGUGAUGUUGGAGAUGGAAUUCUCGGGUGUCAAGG` has a log2 enrichment of 0.178.

Set 3 — technique: protein binding microarray; molecule type: double-stranded DNA, one strand shown; medium: in vitro; concentration: not given; relative to: not given; reading: higher = stronger binding
Target: Histone acetyltransferase KAT6A, winged helix 2, GST fusion (KAT6A, Homo sapiens, UniProt Q92794, residues 85-181)
Notes: 8-mer, flanks averaged, mean of 2 arrays, mostly near background
Residues (chain): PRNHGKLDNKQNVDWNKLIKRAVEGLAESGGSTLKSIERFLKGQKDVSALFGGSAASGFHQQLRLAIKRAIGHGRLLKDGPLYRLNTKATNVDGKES
`ACATACAC` has an E-score of -0.139.
`CGAACGAC` gave an E-score of 0.0895.
`GGGCGTCA` has an E-score of -0.0197.
`GCGGCGGA` has an E-score of 0.253.
`CCTGTAAG` gave an E-score of -0.152.
With `TCTGATAA` the E-score was 0.0424.
With `GAGGAAAA` the E-score was 0.0827.
For `CAGACGCG`, the E-score was 0.0223.
The E-score of `AACGCTGA` is reported as -0.0505.
`TTGAGCAA` has an E-score of 0.186.
The E-score of `ACCTTTAC` is reported as -0.0615.
With `GGCGGGGA` the E-score was 0.305.
With `AGATTTAC` the E-score was 0.078.
The E-score of `TCCCCTAA` is reported as -0.0115.
With `AAGTGAGC` the E-score was -0.104.
With `ATACCAGG` the E-score was -0.0497.
The E-score of `CAAGGTCG` is reported as -0.0355.
The E-score of `AACCTTCT` is reported as 0.072.
For `AGAAGGTC`, the E-score was -0.0762.

Set 4 — technique: RNA Bind-n-Seq; molecule type: RNA; medium: in vitro; concentration: 365 nM; relative to: no-protein control; reading: higher = stronger binding
Target: RNA binding protein fox-1 homolog 2, RRM domain, GST-SBP tag (RBFOX2, Homo sapiens, UniProt O43251-10, residues 100-194)
Notes: natural RNA segment, single round, ends assumed
Residues (chain): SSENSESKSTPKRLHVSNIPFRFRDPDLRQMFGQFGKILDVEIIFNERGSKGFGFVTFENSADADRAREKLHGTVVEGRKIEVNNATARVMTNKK
Under “RBNS enrichment (R)”, `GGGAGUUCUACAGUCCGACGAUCUCCUGAAGUAGACUAAAGCCCGGCUGAAAAUUCCGAGGAAAACAAAACAAACGAAUGAAUGAACAGACACACACAAUGUUCCAAGUUCCCCUAAAAUAUGACCCACUUGUUGGAAUUCUCGGGUGCCAA` is recorded as 0.93.
Under “RBNS enrichment (R)”, `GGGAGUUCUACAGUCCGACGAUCGGUAUUUCAUUUAUUCUUAUGGACAAAGCAAUGCAGCAUCAGGAGAUCAUUGGUGACAUUCUUCAGUUAUCAUUAUACUUUGCCGAAUUCUAUCACAGCACAGCAGGUCGUGGAAUUCUCGGGUGCCAA` is recorded as 0.958.
`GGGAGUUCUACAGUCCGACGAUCUUUCAAUAGGCAUAUAUUAACAGGCUGCUUAUUUUGGCGGAGGUUACAUAUGGAUGAAAAUGAAUCUUAGUCACUGAAUAUUCAUAUACAUUUCCCCCAAAACCUUAGACUGGAAUUCUCGGGUGCCAA` — result for “RBNS enrichment (R)”: 0.297.
`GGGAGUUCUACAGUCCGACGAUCAUCACAUGCUCUCCAGGAAAGGGACGGAAUCAAUCCUGUGACCGAUGGGCUCGCAAGGAUGGGUGCCGCCGUGGGAGCCCUGCCUCUGGUGCUGGCAAGGGAUUGGGUUUUGGAAUUCUCGGGUGCCAA` — result for “RBNS enrichment (R)”: 0.431.
`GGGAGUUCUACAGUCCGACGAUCAGGCAAUUUUCGAGGUUUUUAUUUGUUCGGUAUUGUUUUUUUACACUGUGGUACAUAUAAGCAACUUUAAUAGGUGAUAAAUGUACAGUAGUUAGAUUUCACCUGCAUAUUGGAAUUCUCGGGUGCCAA`: “RBNS enrichment (R)” 0.571.
Under “RBNS enrichment (R)”, `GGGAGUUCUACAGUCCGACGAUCUUCUUACUAAUAUCCAUGGUUUGCAGGUUCUGUUAGGCCCUUUCCUUCUCCUUACUUCUUAUCCCCAACUCCCUACCCACCCCUCUUCAGUUUUCAGAUUGGAGAUUCAAUGGAAUUCUCGGGUGCCAA` is recorded as 0.588.
`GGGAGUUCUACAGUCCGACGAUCCCAGGAUGCAGCAAGCAGCAGCAGGGGCUGACAGCAGGCUUACUGCCAUCAACAUUGCUUGAAAUGCCUCUAUGUUCUGAAUAAAGAAAAACCAUAAUUGCUUGUGGUGAUGGAAUUCUCGGGUGCCAA`: “RBNS enrichment (R)” 0.516.
`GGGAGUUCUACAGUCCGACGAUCCUCCAAAGUAUUGUACAAAUAAGUGUGCAGUAUCUGUGAACUGAAUUCACCACAGACUUUAGCUUUCUGAGCAAGAGGAUUUUGCGUCAGAGAAAUGUCUGUCCAUUUUUUGGAAUUCUCGGGUGCCAA`: “RBNS enrichment (R)” 0.482.

Excerpt of the above (set 3):
`CGAACGAC` gave an E-score of 0.0895.
`GGGCGTCA` has an E-score of -0.0197.
`GCGGCGGA` has an E-score of 0.253.
`CCTGTAAG` gave an E-score of -0.152.
